Measurements from different studies.
Protocols differ between the studies behind these lines.
Organism: Pseudomonas aeruginosa

COc1ccc2ccc3c(c2c1)C=[N+]1C2CCCCC2[N+]2=Cc4cc(C(C)(C)C)cc(C(C)(C)C)c4[O][Au-]21[O]3.F[P-](F)(F)(F)(F)F (stereo not shown)
MIC (bacterial growth, broth microdilution; carbapenem-resistant clinical isolate; 24 h): > 20 µM

CC(C)c1ccc2c(c1)CCC1C(C)(CN(CC(O)C[N+](C)(C)C)CC(O)C[N+](C)(C)C)CCCC21C (stereo not shown)
MIC (microbial growth, broth dilution; ATCC27853; 16 h): > 250 µg/mL

COc1ccc2ccc3c(c2c1)C=[N+]1C2CCCCC2[N+]2=Cc4cccc(F)c4[O][Au-]21[O]3.F[P-](F)(F)(F)(F)F (stereo not shown)
MIC (bacterial growth, broth microdilution; carbapenem-resistant clinical isolate; 24 h): > 20 µM

CC[P+](CC)(CC)[Au-][S][C@@H]1O[C@H](COC(C)=O)[C@@H](OC(C)=O)[C@H](OC(C)=O)[C@H]1NC(=O)C(Cl)(Cl)Cl
MIC (NCTC 13437): > 328 µM

CC[C@@H](C)[C@@H](NC(=O)[C@@H](C)NC(=O)[C@@H](CCCCN)NC(=O)[C@@H](CC(C)C)NC(=O)[C@@H](CC(C)C)NC(=O)[C@H](NC(=O)[C@@H](CCCCN)NC(=O)[C@@H](CC(C)C)NC(=O)[C@@H](CCCCN)NC(=O)[C@@H](CCCCN)NC(=O)[C@@H](CCCCN)NC(=O)[C@@H](CCCCN)NC(=O)[C@@H](C)NC(=O)[C@@H](CCCCN)NC(=O)[C@@H](CO)NC(=O)[C@@H](Cc1ccccc1)NC(=O)[C@H](NC(=O)[C@@H](CCCCN)NC(=O)[C@@H](CC(C)C)NC(=O)[C@@H](Cc1ccccc1)NC(=O)[C@@H](CO)NC(=O)[C@@H](CCCCN)NC(=O)[C@@H](Cc1c[nH]c2ccccc12)NC(=O)[C@@H](CCCCN)NC(C)=O)[C@H](C)O)[C@H](C)O)C(=O)N[C@H](CO)C(=O)N[C@H](CCCCN)C(N)=O
MIC (broth microdilution; PAO1; 24 h, 37 °C): 2.5 µM

CC(C)=CCc1cc2c(cc1O)OCc1c-2oc2c(CC=C(C)C)c(O)ccc12
MIC (ATCC 10145): 128 µg/mL

CC(C)C[C@H](NC(=O)[C@H](CC(N)=O)NC(=O)[C@H](CCCNC(=N)N)NC(=O)[C@@H](CC(C)C)NC(=O)[C@H](Cc1ccc2ccccc2c1)NC(=O)[C@H](CC(=O)O)NC(=O)[C@H](CCCCN)NC(=O)[C@@H](CC(C)C)NC(=O)[C@H](CCCNC(=N)N)NC(=O)[C@H](CCC(N)=O)NC(=O)[C@@H](NC(=O)[C@@H](CC(C)C)NC(=O)[C@H](CCCNC(=N)N)NC(=O)[C@H](CCCCN)NC(=O)[C@H](Cc1ccccc1)NC(=O)CN)C(C)C)C(=O)N[C@H](C(N)=O)C(C)C
MIC (broth microdilution; PAO1): 12.5 µM

CO[C@@H](C(N)=O)[C@H](NC(=O)c1ccc(NC(=O)c2ccc([N+](=O)[O-])cc2)cc1)C(=O)Nc1ccc(C(=O)Nc2ccc(C(=O)Nc3ccc(C(=O)O)cc3)c(O)c2OC(C)C)cc1
MIC (microbial growth; PA14): 2 µg/mL

Oc1c(Br)ccc2cccnc12
MIC (microbial growth, agar dilution; ATCC27853): > 1140 µM

Cc1c(CN(C)C(=O)/C=C/c2cnc3c(c2)CC(N)C(=O)N3)oc2ccccc12 (stereo not shown)
MIC (PAO1): > 64 µg/mL

Repeated from above:
COc1ccc2ccc3c(c2c1)C=[N+]1C2CCCCC2[N+]2=Cc4cccc(F)c4[O][Au-]21[O]3.F[P-](F)(F)(F)(F)F (stereo not shown)
MIC (bacterial growth, broth microdilution; carbapenem-resistant clinical isolate; 24 h): > 20 µM
